Measurements gathered from unrelated publications.
Parts stem from different laboratories: compare values within a part only.

Study 1
Target: RNA binding protein fox-1 homolog 2, RRM domain, GST-SBP tag (RBFOX2, Homo sapiens, UniProt O43251-10, residues 100-194)
Method: RNA Bind-n-Seq
Form: RNA
Matrix: in vitro
Concentration: 365 nM
Setting: natural RNA segment, single round, ends assumed
Reference: no-protein control
Reading: higher = stronger binding
| Oligonucleotide | RBNS enrichment (R) |
| --- | --- |
| GGGAGUUCUACAGUCCGACGAUCGUGUAUAGAUGGAUGGAUGUAACUCAUACUGUACAUUUCCAUCAGGGCACUUAAAAGUUCUGUUAUUUUUGUUUGGUUUUGUUAUUUCAGUCCUCAGUUAAGGCAAGAAUUGGAAUUCUCGGGUGCCAA | 0.669 |
| GGGAGUUCUACAGUCCGACGAUCUCCUAGUUGUCCAGGGAUAAAAAUCAUAUAGACCAAUUGAAGCAUGAACGUGGAUUGUAUUUAAGACAUAAACAAAGACAUUGACAGCAAUUCAUGGUUCAAGUAUUAAGUGGAAUUCUCGGGUGCCAA | 1.75 |
| GGGAGUUCUACAGUCCGACGAUCAAGACCGCACUGGAGUUGGGUGUGUUCUGAGUUUCUGUCCAGAUGUGAUUUCAGCAGUCAUGGUAUUCCAAGUGUGUGUGUGGAGGUAGAUAAGUGGGACGGUAAAGACAUGGAAUUCUCGGGUGCCAA | 1.25 |
| GGGAGUUCUACAGUCCGACGAUCGGCUUUGGAAAAGAGCCCAGGGACUUAACGUGCUGCCUGUUGUACUCUGUCCCCUCAUGACUUUUUAGACACAGGGACUAGGACAUCGACCACCCUCUGCCCCUCCUGCAUGGAAUUCUCGGGUGCCAA | 0.826 |

Study 2
Target: Centromere-binding protein 1, full length, His-tagged (CBF1, Saccharomyces cerevisiae, UniProt P17106, residues 1-351)
UniProt P17106, sequence (whole entry, looked up): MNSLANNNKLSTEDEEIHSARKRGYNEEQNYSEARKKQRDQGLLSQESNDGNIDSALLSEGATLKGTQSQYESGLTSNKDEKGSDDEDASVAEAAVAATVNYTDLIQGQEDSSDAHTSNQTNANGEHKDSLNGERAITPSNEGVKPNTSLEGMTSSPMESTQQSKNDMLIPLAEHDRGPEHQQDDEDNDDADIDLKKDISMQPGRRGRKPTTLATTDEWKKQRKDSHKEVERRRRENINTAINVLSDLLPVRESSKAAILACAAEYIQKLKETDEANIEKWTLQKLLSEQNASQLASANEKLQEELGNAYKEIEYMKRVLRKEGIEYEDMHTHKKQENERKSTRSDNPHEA
Method: competition protein-binding microarray
Form: double-stranded DNA, one strand shown
Matrix: in vitro
Concentration: 2 µM
Setting: whole 60-bp probe, lowest competitor level
With: Pho4 competitor, 0.05 µM
Reading: higher = stronger binding
| Oligonucleotide | fluorescence intensity [a.u.] |
| --- | --- |
| CGCTTGACGAACCATCACGTTTGTCAATAACACTTCGTCTTGATTCGCTTGACGCTGCTG | 248 |
| GTCTTGTCTCATTGAAAGGTGGGTGTCCCCACTTCAGTCTTGATTCGCTTGACGCTGCTG | 73.4 |
| CGGGGTTAAGTTTTACACGTGTTTTGCTTGCAGCAGGTCTTGATTCGCTTGACGCTGCTG | 1030 |
| GTAACAGGTTTCCATCACGTGCTTTTTAGGGTTTTGGTCTTGATTCGCTTGACGCTGCTG | 3770 |

Study 3
Target: Histone acetyltransferase KAT6A, both winged helices, GST fusion (KAT6A, Homo sapiens, UniProt Q92794, residues 1-181)
Method: protein binding microarray
Form: double-stranded DNA, one strand shown
Matrix: in vitro
Concentration: not given
Setting: 8-mer, flanks averaged, mean of 2 arrays, mostly near background
Reference: not given
Reading: higher = stronger binding
Residues (chain): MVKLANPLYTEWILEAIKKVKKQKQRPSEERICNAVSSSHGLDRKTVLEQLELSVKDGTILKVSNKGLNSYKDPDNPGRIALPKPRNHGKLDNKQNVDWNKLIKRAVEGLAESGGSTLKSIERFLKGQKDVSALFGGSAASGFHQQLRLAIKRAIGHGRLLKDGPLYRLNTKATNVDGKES
| Oligonucleotide | E-score |
| --- | --- |
| CCGGCGGA | 0.341 |
| TGACTAAA | -0.124 |
| GTGAGAAA | -0.0699 |
| ATTCCTAG | -0.185 |

Mixed results
| Molecule | target | test | system | setting | how to read | quantity | value |
| --- | --- | --- | --- | --- | --- | --- | --- |
| PhoQ, residues 284 288 289 292 302 303 GANMMA | PhoP, residues 12 14 15 18 19 LHHVQ (Escherichia coli, UniProt P23836) | Sort-seq, item: YFP reporter | E. coli | PhoQ-PhoP variant library, with: 10 µM Mg2+ | reference: high Mg2+ state, higher = stronger signaling | fold induction | 12.9 |
